Results from different studies.
Several values in a cell are separate wells, animals, samples, runs or records. In brackets after ≈: the same amount, converted by molar mass.
Organism: Staphylococcus aureus

SMILES | assay | test system | setting | scale | measurement | result
CC[C@H](C)[C@@H]1NC(=O)[C@@H]([C@@H](C)O)NC(=O)CNC(=O)[C@H](CC(=O)O)NC(=O)CNC(=O)[C@H](CC(=O)O)NC(=O)CNC(=O)[C@H]2CCCCN2C(=O)[C@@H](NC(=O)[C@H](CC(=O)O)NC(=O)/C=C/CCCCCCCCCC(C)C)CNC(=O)[C@@H]2CCCN2C1=O | broth microdilution | VISA LIM strain 2, Mueller-Hinton broth, Mg2+ 10 mg/L | 16 h, added: Ca2+ 2.5 mM |  | MIC | 4 mg/L (≈ 3.21 µM)
N=C(N)NCCC[C@H](NC(=O)[C@H](Cc1c[nH]c2ccccc12)NC(=O)[C@H](CCCNC(=N)N)NC(=O)[C@H](CCCNC(=N)N)NC(=O)[C@@H]1CCCN1C(=O)[C@H](CCCCN)NC(=O)[C@@H](N)CCCNC(=N)N)C(=O)N[C@@H](Cc1c[nH]c2ccccc12)C(=O)N[C@@H](Cc1c[nH]c2ccccc12)C(=O)N1CCC[C@H]1C(=O)N[C@@H](CCCCN)C(=O)N[C@@H](CCCNC(=N)N)C(=O)N1CCC[C@H]1C(=O)O |  | 09057, female BALB/c mice, sepsis, kidney | intraperitoneal, 20 mg/kg |  | log bacterial load | 6.01 log(CFU/g) and 5.16 log(CFU/g) and 5.22 log(CFU/g) and 5.73 log(CFU/g) and 4.92 log(CFU/g) and 5.4 log(CFU/g)
CCCCCCCCCCCCCC(=O)N[C@H]1C(=O)N[C@@H](CN)C(=O)N[C@@H](CO)C(=O)N[C@@H](Cc2ccc(O)cc2)C(=O)O[C@H]1C |  | SH1000 | added: lysophosphatidylethanolamine, molar ratio 0.5 |  | MIC | 2 mg/L
OB(O)c1ccc(C(F)(F)F)s1 | crystal violet | USA300 wild type | 1 µM | relative to: wild type untreated | biofilm formation | 66.2% and 77.6%
C=C(NC(=O)c1csc(-c2nc3c(cc2O)-c2nc(cs2)C(=O)NC(C(C)O)C(=O)NC(=C(C)OC)c2nc(cs2)C(=O)NC2c4nc(cs4)C(=O)NC(COC(=O)c4c5c6c(cccc6n4O)COC(=O)C(OC4CC(C)(O)C(N(C)C)C(C)O4)C2OC5)c2nc-3cs2)n1)C(N)=O (centres unmarked) |  | MRSA strain 1 |  |  | MIC | 0.0156 mg/L (≈ 0.0109 µM)
c1ccc(CCNC2CCCc3c2[nH]c2ccc(C4CCCCC4)cc32)cc1 (centres unmarked) | microbial growth, broth dilution | ATCC29213 |  |  | MIC | 2 mg/L (≈ 5.37 µM)
CC(C)CCCCCCCCC/C=C/C(=O)N[C@@H](CC(=O)O)C(=O)N[C@H]1CNC(=O)[C@@H]2CCCN2C(=O)[C@H](C(C)C)NC(=O)[C@@H](CN)NC(=O)CNC(=O)[C@H](CC(=O)O)NC(=O)CNC(=O)[C@H](CC(=O)O)NC(=O)[C@H](CC(=O)O)NC(=O)[C@H]2CCCCN2C1=O | broth microdilution | VISA LIM strain 2, Mueller-Hinton broth, Mg2+ 10 mg/L | 16 h, added: Ca2+ 10 mM |  | MIC | 1 mg/L (≈ 0.783 µM)
CC1=C[C@@H](C)[C@H]2[C@@H]3C(=O)C(Cl)(Cl)C(=O)[C@H](C)C(=O)O[C@@H](C)/C=C/C=C\[C@@H](C)[C@@H]3C=C[C@@H]2C1 |  | USA300 JE2 saeR transposon mutant |  |  | MIC | 0.025 mg/L (≈ 0.0521 µM)

A few entries again:
SMILES | assay | test system | setting | scale | measurement | result
CCCCCCCCCCCCCC(=O)N[C@H]1C(=O)N[C@@H](CN)C(=O)N[C@@H](CO)C(=O)N[C@@H](Cc2ccc(O)cc2)C(=O)O[C@H]1C |  | SH1000 | added: lysophosphatidylethanolamine, molar ratio 0.5 |  | MIC | 2 mg/L
